# Results collected from several papers.
# Each numbered part is a random draw from the data of one study; scales do not carry over between parts. Values joined by “and” are separate records of one study, mostly repeats; a detail may differ.
# UniProt P51956, sequence (whole entry, looked up): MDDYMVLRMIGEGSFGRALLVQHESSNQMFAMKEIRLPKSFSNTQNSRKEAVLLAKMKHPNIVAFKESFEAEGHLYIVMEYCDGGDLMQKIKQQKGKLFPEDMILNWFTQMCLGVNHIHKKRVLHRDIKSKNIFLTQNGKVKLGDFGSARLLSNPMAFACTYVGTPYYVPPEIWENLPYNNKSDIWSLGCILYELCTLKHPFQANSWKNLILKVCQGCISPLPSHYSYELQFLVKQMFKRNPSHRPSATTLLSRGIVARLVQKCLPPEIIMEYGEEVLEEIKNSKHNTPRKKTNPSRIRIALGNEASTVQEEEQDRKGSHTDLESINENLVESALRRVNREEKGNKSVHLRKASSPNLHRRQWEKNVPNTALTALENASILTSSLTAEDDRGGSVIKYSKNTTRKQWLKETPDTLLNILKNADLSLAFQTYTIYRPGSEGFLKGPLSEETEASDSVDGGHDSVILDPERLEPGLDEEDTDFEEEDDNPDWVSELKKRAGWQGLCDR
# UniProt Q16539, sequence (whole entry, looked up): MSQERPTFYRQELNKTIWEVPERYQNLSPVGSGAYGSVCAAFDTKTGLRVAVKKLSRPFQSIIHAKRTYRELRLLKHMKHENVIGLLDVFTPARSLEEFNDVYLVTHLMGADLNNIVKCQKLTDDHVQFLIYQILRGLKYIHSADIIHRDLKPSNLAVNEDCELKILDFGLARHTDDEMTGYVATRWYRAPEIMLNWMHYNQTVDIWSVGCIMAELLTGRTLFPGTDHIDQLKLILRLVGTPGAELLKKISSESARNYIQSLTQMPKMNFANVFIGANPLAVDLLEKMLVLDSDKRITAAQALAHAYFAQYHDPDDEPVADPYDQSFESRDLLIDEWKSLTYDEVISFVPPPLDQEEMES
# UniProt P32298, sequence (whole entry, looked up): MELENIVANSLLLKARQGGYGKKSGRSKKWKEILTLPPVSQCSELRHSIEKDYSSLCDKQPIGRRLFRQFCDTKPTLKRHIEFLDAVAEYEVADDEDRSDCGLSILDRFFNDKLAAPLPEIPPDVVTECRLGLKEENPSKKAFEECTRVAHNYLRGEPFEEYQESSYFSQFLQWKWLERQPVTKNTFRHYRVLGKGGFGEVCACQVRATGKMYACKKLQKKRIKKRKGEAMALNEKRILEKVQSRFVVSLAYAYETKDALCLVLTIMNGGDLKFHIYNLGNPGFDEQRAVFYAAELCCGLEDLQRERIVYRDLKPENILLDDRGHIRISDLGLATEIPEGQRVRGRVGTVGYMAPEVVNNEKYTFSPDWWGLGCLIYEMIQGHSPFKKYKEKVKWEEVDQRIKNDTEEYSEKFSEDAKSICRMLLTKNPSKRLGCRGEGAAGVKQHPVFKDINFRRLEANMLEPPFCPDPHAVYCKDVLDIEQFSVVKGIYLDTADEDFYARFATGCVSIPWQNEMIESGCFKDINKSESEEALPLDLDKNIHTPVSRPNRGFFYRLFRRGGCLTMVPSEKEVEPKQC
# UniProt P9WI81, sequence (whole entry, looked up): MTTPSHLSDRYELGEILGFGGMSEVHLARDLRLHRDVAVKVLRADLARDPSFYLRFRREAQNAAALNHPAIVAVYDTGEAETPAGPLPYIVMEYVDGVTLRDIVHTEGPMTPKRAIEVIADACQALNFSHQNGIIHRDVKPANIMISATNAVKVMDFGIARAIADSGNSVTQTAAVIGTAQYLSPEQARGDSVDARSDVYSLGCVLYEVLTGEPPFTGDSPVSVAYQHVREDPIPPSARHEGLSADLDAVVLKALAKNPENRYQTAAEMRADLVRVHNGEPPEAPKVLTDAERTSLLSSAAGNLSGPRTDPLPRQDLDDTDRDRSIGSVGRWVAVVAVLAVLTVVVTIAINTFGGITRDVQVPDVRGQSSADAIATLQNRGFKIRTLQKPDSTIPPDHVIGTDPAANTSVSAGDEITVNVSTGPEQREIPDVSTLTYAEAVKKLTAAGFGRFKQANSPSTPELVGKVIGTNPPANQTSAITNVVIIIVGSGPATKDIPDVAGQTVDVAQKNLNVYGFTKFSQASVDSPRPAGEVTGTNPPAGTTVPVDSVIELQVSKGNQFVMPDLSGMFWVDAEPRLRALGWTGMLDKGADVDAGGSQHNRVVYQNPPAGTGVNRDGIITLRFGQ
# UniProt Q86UE8, sequence (whole entry, looked up): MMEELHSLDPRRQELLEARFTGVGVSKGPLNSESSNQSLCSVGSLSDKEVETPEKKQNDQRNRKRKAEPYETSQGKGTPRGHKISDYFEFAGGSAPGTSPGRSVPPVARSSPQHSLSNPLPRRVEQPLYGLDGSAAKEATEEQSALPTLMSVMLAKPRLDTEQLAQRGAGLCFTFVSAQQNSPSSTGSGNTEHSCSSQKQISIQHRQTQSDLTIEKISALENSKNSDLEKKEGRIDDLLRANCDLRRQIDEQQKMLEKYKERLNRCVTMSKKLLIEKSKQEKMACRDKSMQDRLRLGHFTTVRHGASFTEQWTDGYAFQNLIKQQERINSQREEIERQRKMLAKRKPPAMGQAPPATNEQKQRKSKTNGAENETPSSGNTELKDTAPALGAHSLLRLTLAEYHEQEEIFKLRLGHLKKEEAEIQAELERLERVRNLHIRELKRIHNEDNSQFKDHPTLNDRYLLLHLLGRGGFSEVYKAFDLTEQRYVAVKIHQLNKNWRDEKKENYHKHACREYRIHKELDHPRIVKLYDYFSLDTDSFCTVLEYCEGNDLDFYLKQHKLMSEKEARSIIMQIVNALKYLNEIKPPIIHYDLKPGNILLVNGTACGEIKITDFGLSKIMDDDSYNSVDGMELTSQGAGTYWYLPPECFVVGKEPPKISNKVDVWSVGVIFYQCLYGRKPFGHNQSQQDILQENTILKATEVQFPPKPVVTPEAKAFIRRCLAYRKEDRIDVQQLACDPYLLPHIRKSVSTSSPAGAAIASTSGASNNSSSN
# UniProt Q16832, sequence (whole entry, looked up): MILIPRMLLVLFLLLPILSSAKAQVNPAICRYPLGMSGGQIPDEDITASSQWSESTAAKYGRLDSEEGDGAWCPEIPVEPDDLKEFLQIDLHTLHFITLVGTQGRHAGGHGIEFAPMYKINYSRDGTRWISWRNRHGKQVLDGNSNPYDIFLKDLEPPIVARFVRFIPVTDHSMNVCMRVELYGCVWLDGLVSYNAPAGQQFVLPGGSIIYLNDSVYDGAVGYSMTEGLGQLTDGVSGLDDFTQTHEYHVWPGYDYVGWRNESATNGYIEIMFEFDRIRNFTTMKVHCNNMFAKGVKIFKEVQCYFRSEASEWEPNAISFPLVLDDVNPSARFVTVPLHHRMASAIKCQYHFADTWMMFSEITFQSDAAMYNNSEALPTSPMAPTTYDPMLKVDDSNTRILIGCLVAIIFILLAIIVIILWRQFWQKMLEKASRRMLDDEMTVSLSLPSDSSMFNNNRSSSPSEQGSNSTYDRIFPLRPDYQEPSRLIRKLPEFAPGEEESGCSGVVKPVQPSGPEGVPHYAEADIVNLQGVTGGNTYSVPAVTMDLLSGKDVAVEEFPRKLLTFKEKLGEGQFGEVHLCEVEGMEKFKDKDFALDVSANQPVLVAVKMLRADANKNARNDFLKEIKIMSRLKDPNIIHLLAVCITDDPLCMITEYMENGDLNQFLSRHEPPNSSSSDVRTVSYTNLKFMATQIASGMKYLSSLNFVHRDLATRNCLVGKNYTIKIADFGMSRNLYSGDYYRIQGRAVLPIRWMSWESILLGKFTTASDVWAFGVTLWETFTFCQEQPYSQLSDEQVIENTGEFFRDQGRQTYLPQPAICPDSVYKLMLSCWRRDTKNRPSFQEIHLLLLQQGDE

# Series 1
# Target: Calcium/calmodulin-dependent protein kinase type II subunit alpha (CAMK2A, Homo sapiens, UniProt Q9UQM7)
# UniProt Q9UQM7, sequence (whole entry, looked up): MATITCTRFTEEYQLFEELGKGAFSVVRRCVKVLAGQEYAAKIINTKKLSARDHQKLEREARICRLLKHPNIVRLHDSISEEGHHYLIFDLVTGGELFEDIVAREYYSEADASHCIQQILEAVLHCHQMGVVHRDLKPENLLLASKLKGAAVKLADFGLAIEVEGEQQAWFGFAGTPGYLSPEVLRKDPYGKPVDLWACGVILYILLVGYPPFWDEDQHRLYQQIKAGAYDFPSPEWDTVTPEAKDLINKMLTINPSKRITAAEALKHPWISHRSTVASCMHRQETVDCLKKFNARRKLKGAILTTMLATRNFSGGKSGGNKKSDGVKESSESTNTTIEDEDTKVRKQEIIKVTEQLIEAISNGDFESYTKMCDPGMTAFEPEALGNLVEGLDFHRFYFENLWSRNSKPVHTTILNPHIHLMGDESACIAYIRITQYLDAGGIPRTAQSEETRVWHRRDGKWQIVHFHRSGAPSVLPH
# Effect on: enzyme activity
# Action: inhibitor
# Concentration: 10 µM
Compound,inhibition [%]
CC1=C(C)C(=O)C(CC[C@](C)(O)CCC[C@H](C)CCC[C@H](C)CCCC(C)C)=C(C)C1=O,-24
C[C@@H]1C(=O)O[C@H]2[C@H](O)[C@]34[C@@H]5OC(=O)[C@]3(O[C@@H]3OC(=O)[C@H](O)[C@@]34[C@H](C(C)(C)C)[C@H]5O)[C@@]12O,-8
CC(C)C[C@H]1C(=O)O[C@H](Cc2ccccc2)C(=O)N(C)[C@@H](CC(C)C)C(=O)O[C@H](C)C(=O)N(C)[C@@H](CC(C)C)C(=O)O[C@H](Cc2ccccc2)C(=O)N(C)[C@@H](CC(C)C)C(=O)O[C@H](C)C(=O)N1C,-12
C[Se]C[C@H](N)C(=O)O,1

# Series 2
# Structure (SMILES): CN[C@@H]1C[C@H]2O[C@@](C)([C@@H]1OC)n1c3ccccc3c3c4c(c5c6ccccc6n2c5c31)C(=O)NC4
# Effect on: enzyme activity
# Action: inhibitor
# Concentration: 0.5 µM
# Reference: control
target,remaining activity
"DDR2 (Homo sapiens, UniProt Q16832)",3.83%
"MAPK14 (Homo sapiens, UniProt Q16539)",93.7% and 101%
"GRK4 (Homo sapiens, UniProt P32298)",20.5%
"TLK2 (Homo sapiens, UniProt Q86UE8)",2.83%
"NEK3 (Homo sapiens, UniProt P51956)",91.9% and 107%

# Series 3
# Target: His6 tag
# Technique: AlphaScreen counter screen
# Concentration: concentration not given
SMILES,inhibition [%]
O=C1NC(=O)N(c2ccc(F)cc2)C(=O)C1=CNc1ccc2c(c1)OCO2,3.35
CC(O)=C(C#N)C(=O)Nc1cc(Br)ccc1Br,22.2
COC(=O)c1ccc(NC=C2C(=O)NC(=O)N(c3ccccc3)C2=O)cc1,-3.35
COc1ccc(NC=C2C(=O)NC(=S)N(C)C2=O)cc1,6.15
CN1C(=O)NC(=O)C(=NNc2ccc(Br)cc2)C1=O,-1.2

# Further values, each from its own experiment
Compound,target,effect on,action,concentration,quantity,result
CO[C@@H]1[C@H](N(C)C(=O)c2ccccc2)C[C@H]2O[C@]1(C)n1c3ccccc3c3c4c(c5c6ccccc6n2c5c31)C(=O)NC4,"Serine/threonine-protein kinase PknB (pknB, Mycobacterium tuberculosis, UniProt P9WI81)",enzyme activity,inhibitor,1 µM,inhibition,0%

# A few entries again (series 2):
target,remaining activity
"DDR2 (Homo sapiens, UniProt Q16832)",3.83%
